Measured values pooled from the literature.
Each line is one published result; not all experiments were run side by side. ± gives the spread as reported.
FGFR1: Fibroblast growth factor receptor 1 (FGFR1, Homo sapiens, UniProt P11362)
UniProt P11362, sequence (whole entry, looked up): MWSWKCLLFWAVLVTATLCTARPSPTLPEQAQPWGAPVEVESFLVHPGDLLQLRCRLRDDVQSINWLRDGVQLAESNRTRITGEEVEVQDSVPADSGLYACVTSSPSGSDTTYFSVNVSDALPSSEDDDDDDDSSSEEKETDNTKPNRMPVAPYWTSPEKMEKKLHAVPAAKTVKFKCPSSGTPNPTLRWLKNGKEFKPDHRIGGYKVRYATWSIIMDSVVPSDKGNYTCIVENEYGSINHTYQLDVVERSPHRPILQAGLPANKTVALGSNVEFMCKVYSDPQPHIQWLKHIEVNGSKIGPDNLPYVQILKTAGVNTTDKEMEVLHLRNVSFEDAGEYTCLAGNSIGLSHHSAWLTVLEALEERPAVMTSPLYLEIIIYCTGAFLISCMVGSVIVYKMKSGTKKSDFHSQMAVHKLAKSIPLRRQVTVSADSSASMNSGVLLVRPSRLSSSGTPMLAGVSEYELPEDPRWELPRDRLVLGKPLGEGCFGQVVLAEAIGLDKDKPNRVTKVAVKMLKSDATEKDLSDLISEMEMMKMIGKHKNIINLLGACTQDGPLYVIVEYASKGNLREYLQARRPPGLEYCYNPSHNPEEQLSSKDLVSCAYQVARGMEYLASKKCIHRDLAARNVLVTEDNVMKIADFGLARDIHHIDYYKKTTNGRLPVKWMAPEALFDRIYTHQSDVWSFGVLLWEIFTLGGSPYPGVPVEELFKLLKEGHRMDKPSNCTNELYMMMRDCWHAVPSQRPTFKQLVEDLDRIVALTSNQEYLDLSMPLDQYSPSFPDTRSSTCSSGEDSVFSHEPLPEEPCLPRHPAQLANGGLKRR
BCHE: Cholinesterase (BCHE, Homo sapiens, UniProt P06276)
UniProt P06276, sequence (whole entry, looked up): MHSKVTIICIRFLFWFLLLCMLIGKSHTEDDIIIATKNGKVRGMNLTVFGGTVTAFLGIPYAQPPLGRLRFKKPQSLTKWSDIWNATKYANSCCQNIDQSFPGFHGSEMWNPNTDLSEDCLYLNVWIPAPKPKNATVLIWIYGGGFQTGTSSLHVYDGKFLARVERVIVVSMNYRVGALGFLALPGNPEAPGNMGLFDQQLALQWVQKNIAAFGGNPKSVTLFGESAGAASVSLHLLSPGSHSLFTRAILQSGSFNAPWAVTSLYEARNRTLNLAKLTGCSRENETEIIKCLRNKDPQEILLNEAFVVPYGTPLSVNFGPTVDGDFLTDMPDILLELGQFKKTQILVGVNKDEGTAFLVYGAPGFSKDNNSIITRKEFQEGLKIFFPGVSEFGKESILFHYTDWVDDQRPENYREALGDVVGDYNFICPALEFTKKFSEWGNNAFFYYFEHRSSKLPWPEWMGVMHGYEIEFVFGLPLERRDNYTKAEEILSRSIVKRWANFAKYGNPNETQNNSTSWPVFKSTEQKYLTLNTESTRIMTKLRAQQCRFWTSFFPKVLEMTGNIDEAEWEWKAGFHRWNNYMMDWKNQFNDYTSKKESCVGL
UniProt O15354, sequence (whole entry, looked up): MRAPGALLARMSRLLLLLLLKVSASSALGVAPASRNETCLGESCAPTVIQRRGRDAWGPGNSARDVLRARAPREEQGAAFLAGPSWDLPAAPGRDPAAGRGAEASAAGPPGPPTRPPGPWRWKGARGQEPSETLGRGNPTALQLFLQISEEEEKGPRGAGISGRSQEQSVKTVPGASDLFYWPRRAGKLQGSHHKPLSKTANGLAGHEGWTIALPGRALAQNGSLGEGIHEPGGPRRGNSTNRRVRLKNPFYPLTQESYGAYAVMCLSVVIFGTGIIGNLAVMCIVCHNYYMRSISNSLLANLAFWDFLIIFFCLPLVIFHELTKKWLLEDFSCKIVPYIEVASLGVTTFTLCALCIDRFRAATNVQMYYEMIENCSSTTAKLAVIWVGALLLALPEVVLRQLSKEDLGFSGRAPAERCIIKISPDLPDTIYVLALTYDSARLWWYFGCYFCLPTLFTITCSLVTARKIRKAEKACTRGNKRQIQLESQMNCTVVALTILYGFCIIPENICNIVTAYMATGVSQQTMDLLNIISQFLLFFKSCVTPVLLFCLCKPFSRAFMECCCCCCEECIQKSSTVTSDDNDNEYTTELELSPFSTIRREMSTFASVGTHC
UniProt Q9H7Z7, sequence (whole entry, looked up): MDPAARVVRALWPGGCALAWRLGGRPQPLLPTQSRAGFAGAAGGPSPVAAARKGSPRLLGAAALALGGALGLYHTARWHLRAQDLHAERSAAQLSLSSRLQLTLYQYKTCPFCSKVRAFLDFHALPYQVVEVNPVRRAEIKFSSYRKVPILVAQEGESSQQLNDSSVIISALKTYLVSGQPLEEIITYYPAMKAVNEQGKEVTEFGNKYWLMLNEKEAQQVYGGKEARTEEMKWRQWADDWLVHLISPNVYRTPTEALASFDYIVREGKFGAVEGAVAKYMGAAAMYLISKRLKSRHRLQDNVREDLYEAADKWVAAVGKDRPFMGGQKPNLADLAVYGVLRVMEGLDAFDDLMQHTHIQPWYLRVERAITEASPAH
UniProt P14416, sequence (whole entry, looked up): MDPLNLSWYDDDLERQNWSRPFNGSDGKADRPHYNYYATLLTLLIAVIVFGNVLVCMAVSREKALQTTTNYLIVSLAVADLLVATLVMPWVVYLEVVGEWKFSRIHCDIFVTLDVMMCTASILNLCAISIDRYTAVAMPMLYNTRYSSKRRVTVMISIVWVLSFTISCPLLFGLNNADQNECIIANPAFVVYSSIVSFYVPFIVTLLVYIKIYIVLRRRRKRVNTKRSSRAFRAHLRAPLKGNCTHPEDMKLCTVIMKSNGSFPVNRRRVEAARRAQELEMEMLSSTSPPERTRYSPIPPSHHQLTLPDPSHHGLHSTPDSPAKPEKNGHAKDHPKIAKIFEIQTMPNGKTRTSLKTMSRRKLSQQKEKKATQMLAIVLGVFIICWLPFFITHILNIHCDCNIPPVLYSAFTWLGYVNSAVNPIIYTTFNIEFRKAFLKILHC
UniProt Q9HBH9, sequence (whole entry, looked up): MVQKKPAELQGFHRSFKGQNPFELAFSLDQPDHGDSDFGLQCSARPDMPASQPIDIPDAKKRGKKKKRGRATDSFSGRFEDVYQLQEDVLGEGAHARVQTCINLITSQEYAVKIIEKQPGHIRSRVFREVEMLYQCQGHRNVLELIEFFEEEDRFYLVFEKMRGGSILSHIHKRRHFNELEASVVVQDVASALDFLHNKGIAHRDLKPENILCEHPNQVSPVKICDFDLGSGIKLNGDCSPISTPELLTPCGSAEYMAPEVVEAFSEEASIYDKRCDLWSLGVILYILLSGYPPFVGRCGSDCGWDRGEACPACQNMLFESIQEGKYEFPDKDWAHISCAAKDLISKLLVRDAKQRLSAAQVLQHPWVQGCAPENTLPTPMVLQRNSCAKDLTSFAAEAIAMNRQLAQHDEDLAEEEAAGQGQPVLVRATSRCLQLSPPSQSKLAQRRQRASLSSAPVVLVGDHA
UniProt P23284, sequence (whole entry, looked up): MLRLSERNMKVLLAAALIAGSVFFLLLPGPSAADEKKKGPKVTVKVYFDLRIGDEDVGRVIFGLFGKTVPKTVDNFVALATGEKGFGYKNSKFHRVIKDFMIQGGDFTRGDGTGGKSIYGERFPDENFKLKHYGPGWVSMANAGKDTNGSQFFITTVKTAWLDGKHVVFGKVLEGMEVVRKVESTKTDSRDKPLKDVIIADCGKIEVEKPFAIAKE
UniProt Q9JMD7, sequence (whole entry, looked up): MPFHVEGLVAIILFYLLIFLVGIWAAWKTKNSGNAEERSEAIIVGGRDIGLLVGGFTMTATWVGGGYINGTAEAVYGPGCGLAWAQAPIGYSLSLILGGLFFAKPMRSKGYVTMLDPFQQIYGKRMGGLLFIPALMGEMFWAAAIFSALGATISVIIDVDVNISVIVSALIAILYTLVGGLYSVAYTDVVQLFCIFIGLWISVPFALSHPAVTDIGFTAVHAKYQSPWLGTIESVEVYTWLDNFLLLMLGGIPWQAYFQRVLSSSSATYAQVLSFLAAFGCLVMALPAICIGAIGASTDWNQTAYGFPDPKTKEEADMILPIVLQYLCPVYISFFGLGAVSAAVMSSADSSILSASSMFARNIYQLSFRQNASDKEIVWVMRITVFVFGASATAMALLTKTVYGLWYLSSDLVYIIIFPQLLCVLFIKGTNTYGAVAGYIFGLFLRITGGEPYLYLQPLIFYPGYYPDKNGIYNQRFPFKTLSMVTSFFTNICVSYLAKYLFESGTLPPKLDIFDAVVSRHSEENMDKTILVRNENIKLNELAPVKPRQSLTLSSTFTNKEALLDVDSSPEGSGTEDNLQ

COc1ccc(N2C(=O)N(c3c(C)cccc3Cl)Cc3cnc(Nc4ccc(C5CCN(C)CC5)cc4OC)nc32)nc1  inhibition (MKNK2 (Homo sapiens, UniProt Q9HBH9); kinase activity, inhibitor; 0.5 µM, MNK2): 4.45%
O=C(c1ccc(Cl)cc1)N1CCN2C(=O)N(OC(=O)N3CCOc4ccccc43)C(=O)C2C1 (centres unmarked)  probe labelling ratio (Peptidyl-prolyl cis-trans isomerase B (Homo sapiens, UniProt P23284); MS-based ABPP; SW-620 conditioned medium; 10 µM, 1 h, 37 °C, median protein ratio; reference: compound over DMSO): 1.45
CN[C@@]1(c2ccccc2Cl)CCCCC1=O  inhibition (DRD2 (Homo sapiens, UniProt P14416); radioligand binding, antagonist, radioligand displacement; 30 µM, short isoform): 7%
CN(C(=O)n1cnc(-c2ccc[n+]([O-])c2)c1)C1CCCCC1  inhibition (FGFR1; kinase activity, inhibitor; 10 µM, human, added: poly(Glu:Tyr) substrate): 3%
Cl.c1ccc2sc(C3(N4CCCCC4)CCCCC3)cc2c1  efficacy (BCHE; concentration not given, Triton): -103 ± 11.8%
CCN(CC)[C@@H]1CCc2c(F)ccc(O)c2C1  IC50 (Plasmodium falciparum; D10): 2.51 µM
O=C(Nc1cnccc1Cl)N1CCN(Cc2ccc3c(c2)OC(F)(F)O3)CC1  inhibition of binding (High affinity choline transporter 1 (Rattus norvegicus, UniProt Q9JMD7); radioligand binding; 50 µM, rat transporter, added: [3H]hemicholinium-3): 0%
C[N+](C)(CCOc1ccccc1)Cc1cccs1.[I-]  efficacy (BCHE; concentration not given, Triton): -80.2 ± 9.96%
Oc1ccc2c3c1O[C@H]1[C@@H](O)CC[C@@]4(O)[C@@H](C2)N(CC2CCC2)CC[C@]314  log2 fold change (GPR37 (Homo sapiens, UniProt O15354); β-arrestin recruitment, TANGO luminescence; concentration not given; reference: basal luminescence): 0.536
CC(C)OC(=O)c1cc2c(OCC(O)CNC(C)(C)C)cccc2[nH]1 (centres unmarked)  efficacy (BCHE; concentration not given, Triton): -99.9 ± 7.64%
CC1Cc2cc3c(cc2C(c2ccc(N)cc2)=NN1)OCO3 (centres unmarked)  IC50 (Plasmodium falciparum; GB4): 10 µM
CCCCCCC[N+](CC)(CC)CCCCc1ccc(Cl)cc1.Cc1ccc(S(=O)(=O)[O-])cc1  efficacy (BCHE; concentration not given, Triton): -67.9 ± 1.83%
O=C(Nc1cccnn1)N1CCC(=Cc2cccc(Oc3ccc(C(F)(F)F)cn3)c2)CC1  inhibition (FGFR1; kinase activity, inhibitor; 10 µM, human, added: poly(Glu:Tyr) substrate): -6%
C[C@H]1CN(c2n[nH]c3nc(N[C@H]4CC[C@H](NS(=O)(=O)CCC(F)(F)F)CC4)ncc23)CCO1  remaining binding (Prostaglandin E synthase 2 (Homo sapiens, UniProt Q9H7Z7); Kinobeads competition, refers to: PTGES2; 0.8 µM, unit not given; reference: vehicle): 1.22

A few entries again:
Oc1ccc2c3c1O[C@H]1[C@@H](O)CC[C@@]4(O)[C@@H](C2)N(CC2CCC2)CC[C@]314  log2 fold change (GPR37 (Homo sapiens, UniProt O15354); β-arrestin recruitment, TANGO luminescence; concentration not given; reference: basal luminescence): 0.536
Cl.c1ccc2sc(C3(N4CCCCC4)CCCCC3)cc2c1  efficacy (BCHE; concentration not given, Triton): -103 ± 11.8%
